# Assay results of several laboratories.
# Parts stem from different laboratories: compare values within a part only. “And” joins repeats or separate records; there may be more than shown.
# Chain of UniProt Q96L34 (whole entry, looked up): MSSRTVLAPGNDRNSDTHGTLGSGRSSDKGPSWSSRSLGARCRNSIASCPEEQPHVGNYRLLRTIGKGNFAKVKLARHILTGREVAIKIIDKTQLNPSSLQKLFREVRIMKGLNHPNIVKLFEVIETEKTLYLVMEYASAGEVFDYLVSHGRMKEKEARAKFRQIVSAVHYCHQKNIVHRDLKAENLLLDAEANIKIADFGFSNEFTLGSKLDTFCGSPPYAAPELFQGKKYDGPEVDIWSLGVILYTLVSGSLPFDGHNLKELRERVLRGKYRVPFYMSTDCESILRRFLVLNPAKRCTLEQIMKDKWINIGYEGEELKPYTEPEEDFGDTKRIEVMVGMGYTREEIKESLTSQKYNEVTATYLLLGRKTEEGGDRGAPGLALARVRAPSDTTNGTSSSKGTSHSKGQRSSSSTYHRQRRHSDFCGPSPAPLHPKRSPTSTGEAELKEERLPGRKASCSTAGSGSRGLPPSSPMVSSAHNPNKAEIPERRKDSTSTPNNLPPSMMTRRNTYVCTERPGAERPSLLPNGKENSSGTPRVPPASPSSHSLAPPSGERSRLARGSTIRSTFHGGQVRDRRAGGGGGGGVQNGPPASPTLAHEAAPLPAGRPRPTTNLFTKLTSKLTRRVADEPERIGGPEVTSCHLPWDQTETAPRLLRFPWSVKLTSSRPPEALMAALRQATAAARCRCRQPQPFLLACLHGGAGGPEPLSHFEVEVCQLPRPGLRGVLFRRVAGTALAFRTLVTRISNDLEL
# Chain of UniProt O75914 (whole entry, looked up): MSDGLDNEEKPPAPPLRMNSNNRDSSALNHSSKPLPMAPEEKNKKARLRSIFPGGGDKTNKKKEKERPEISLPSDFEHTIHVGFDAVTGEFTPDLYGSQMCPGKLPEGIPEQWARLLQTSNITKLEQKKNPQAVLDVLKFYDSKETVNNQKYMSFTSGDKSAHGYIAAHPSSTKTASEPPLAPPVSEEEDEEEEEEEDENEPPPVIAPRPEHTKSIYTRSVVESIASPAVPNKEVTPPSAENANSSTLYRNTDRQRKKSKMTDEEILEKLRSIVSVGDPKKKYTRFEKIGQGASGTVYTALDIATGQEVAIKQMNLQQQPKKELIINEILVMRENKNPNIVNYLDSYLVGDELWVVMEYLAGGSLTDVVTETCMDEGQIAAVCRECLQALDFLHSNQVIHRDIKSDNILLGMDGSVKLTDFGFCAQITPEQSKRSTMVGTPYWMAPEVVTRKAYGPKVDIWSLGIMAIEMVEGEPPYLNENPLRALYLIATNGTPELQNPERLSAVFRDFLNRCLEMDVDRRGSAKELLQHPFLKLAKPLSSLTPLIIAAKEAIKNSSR
# Chain of UniProt Q7KZI7 (whole entry, looked up): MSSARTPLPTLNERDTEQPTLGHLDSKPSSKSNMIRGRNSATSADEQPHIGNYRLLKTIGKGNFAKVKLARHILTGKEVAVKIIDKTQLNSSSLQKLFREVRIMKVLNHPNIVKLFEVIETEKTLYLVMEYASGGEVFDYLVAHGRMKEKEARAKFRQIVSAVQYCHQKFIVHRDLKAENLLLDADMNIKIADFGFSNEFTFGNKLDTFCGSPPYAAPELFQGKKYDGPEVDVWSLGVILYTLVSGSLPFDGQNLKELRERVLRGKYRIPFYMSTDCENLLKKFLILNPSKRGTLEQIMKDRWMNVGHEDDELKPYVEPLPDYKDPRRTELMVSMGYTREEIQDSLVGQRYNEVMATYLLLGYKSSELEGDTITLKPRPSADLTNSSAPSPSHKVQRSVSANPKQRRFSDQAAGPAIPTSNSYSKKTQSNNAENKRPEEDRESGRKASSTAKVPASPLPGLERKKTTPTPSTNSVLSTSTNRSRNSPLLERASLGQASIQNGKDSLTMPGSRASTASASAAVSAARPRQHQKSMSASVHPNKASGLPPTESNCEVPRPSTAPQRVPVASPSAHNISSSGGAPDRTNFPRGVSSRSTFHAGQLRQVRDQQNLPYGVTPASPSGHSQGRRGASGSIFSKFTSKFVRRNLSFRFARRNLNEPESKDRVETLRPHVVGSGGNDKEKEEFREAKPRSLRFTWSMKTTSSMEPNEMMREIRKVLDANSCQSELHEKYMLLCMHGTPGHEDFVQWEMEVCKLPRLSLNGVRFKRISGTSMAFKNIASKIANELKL
# Chain of UniProt P51956 (whole entry, looked up): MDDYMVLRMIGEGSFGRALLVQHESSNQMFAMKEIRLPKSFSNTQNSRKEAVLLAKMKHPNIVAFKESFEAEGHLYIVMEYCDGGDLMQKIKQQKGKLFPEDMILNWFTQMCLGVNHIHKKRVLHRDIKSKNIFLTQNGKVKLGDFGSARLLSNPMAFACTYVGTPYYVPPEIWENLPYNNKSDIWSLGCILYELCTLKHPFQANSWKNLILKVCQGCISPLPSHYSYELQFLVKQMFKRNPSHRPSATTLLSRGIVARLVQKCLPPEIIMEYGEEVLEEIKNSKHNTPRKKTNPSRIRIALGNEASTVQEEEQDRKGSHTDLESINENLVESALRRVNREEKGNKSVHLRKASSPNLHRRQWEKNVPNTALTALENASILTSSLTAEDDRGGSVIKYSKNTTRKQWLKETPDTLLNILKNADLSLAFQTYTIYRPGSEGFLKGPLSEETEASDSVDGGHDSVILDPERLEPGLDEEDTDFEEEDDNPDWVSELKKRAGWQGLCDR
# Chain of UniProt P42681 (whole entry, looked up): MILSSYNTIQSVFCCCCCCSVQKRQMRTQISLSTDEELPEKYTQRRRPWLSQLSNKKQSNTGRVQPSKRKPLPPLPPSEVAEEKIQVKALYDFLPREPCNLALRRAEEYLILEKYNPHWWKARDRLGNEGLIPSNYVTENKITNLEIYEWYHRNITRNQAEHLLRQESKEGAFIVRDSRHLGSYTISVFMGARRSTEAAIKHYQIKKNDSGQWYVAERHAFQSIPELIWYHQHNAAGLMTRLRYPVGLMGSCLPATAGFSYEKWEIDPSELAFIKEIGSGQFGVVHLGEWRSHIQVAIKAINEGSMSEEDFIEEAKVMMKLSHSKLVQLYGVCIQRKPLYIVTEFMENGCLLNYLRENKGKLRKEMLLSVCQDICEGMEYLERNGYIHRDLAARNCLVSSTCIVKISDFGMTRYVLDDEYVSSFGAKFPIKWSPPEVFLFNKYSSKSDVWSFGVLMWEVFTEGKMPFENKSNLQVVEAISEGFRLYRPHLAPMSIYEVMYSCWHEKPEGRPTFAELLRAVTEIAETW
# Chain of UniProt P35968 (whole entry, looked up): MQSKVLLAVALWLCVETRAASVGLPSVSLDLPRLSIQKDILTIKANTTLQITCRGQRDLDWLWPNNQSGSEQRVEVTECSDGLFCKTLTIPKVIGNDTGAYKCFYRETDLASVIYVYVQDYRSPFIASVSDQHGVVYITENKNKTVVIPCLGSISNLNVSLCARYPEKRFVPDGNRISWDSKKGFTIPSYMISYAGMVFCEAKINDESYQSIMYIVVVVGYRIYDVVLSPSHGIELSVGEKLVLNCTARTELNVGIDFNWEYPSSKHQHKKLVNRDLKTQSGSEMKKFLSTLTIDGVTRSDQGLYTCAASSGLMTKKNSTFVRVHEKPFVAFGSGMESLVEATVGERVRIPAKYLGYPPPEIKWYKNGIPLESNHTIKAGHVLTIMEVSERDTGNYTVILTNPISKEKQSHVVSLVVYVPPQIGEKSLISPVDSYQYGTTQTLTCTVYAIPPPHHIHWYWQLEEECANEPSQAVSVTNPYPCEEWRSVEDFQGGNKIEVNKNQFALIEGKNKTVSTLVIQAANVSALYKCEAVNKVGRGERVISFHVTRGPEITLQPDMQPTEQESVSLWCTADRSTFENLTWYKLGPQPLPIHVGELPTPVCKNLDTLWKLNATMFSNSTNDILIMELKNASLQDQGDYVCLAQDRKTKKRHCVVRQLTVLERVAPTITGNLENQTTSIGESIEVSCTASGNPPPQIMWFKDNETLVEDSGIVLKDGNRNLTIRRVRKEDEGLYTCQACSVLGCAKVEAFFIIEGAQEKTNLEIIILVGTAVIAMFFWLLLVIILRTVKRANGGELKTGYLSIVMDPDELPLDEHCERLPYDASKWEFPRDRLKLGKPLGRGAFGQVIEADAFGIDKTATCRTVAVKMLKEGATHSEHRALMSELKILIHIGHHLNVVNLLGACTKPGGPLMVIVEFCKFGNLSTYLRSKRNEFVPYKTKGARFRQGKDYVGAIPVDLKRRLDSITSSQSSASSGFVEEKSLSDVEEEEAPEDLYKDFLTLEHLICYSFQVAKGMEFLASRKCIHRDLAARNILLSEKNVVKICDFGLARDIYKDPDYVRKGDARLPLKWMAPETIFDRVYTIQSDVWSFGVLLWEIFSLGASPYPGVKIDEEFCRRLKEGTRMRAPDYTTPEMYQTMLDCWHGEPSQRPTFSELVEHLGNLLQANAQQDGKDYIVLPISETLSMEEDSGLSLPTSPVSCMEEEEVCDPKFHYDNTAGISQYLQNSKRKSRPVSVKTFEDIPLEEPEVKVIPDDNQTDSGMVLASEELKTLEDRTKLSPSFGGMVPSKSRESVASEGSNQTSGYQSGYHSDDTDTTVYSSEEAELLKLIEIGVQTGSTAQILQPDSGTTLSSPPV
# Chain of UniProt Q6P2M8 (whole entry, looked up): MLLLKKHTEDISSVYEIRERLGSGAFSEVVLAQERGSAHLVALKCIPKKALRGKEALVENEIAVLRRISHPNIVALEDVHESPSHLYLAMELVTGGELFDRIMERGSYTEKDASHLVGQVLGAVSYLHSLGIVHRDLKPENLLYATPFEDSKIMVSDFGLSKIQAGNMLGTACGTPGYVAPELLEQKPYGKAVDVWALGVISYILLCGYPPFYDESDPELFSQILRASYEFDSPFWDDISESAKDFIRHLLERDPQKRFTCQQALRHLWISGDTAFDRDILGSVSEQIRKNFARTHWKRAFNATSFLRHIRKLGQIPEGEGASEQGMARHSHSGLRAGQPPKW

# Sample 1
# Host: mouse
# Sample: microsomes or S9
# Concentration: 2 µM
# Time: 0.5 h
SMILES,remaining compound [%]
COc1cc(=O)[nH]cc1C(=O)N1CCCC(c2cnn(C)c2)C1 (centres unmarked),69.8
Nc1nc(N2CCN(c3ccccc3Cl)CC2)nc2ccccc12,0.761
Cc1ccc(S(=O)(=O)N2c3c(c4ccc(Br)cc4n3C)CC=CC2c2ccccc2)cc1 (centres unmarked),62.8
Cc1cc(C)c2c(c1)C(NC(=O)c1ncoc1C1CCCO1)CCO2 (centres unmarked),1.36
Cc1nn(-c2ccc(F)c(Cl)c2)c(=O)cc1-c1cccc(N2CCCC2=O)c1,35.7

# Sample 2
# SMILES: Cn1cc(/C=C2\C(=O)Nc3ccc(S(N)(=O)=O)cc32)c2ccccc21
# Effect on: enzyme activity
# Action: inhibitor
# Concentration: 0.5 µM
# Baseline: control
target,remaining activity
"G protein-coupled receptor kinase 4 (GRK4, Homo sapiens, UniProt P32298)",40.4%
"MAP/microtubule affinity-regulating kinase 4 (MARK4, Homo sapiens, UniProt Q96L34)",40.6%
"Serine/threonine-protein kinase Nek3 (NEK3, Homo sapiens, UniProt P51956)",66.2%
"Serine/threonine-protein kinase MARK2 (MARK2, Homo sapiens, UniProt Q7KZI7)",45.5%
"Cyclin-dependent kinase 1, with cyclin A (CDK1, Homo sapiens, UniProt P06493)",56.9%
"Vascular endothelial growth factor receptor 2 (KDR, Homo sapiens, UniProt P35968)",74.3%
"Serine/threonine-protein kinase PAK 3 (PAK3, Homo sapiens, UniProt O75914)",93.8%
"RAC-beta serine/threonine-protein kinase (AKT2, Homo sapiens, UniProt P31751)",88.6%
"Tyrosine-protein kinase TXK (TXK, Homo sapiens, UniProt P42681)",51.3%
"Calcium/calmodulin-dependent protein kinase type 1B (PNCK, Homo sapiens, UniProt Q6P2M8)",58.1%
"cGMP-dependent protein kinase 2 (PRKG2, Homo sapiens, UniProt Q13237)",85%
"Cyclin-dependent kinase 9, with cyclin K (CDK9, Homo sapiens, UniProt P50750)",86.8%
"Mitogen-activated protein kinase 11 (MAPK11, Homo sapiens, UniProt Q15759)",93.8%
"Ribosomal protein S6 kinase alpha-4 (RPS6KA4, Homo sapiens, UniProt O75676)",71.2%

# Sample 3
# Cell line: mouse MPNST tumor cells
# Method: high-content nuclear imaging
# Refers to: cell number
# Concentration: 10 µM
# Time: 12 h
# Notes: mean of 2 replicates
# Baseline: plate mean
# Reading: higher = more cells
SMILES,nuclei count
CCN1CCCC1CNC(=O)c1cc(S(=O)(=O)CC)c(N)cc1OC (centres unmarked),0.524 z-score
CCCCCOC(=O)Nc1nc(=O)n([C@@H]2O[C@H](C)[C@@H](O)[C@H]2O)cc1F,2.11 z-score and 0.142 z-score
CC(C)(C)NCC(O)c1cc(O)cc(O)c1 (centres unmarked),-0.0551 z-score
Cc1cc(C(C)(C)C)c(O)c(C)c1CC1=NCCN1,3.76 z-score

# Sample 4
# Compound: c1ccc(N2CCN(Cc3nc4ccccc4[nH]3)CC2)nc1
# Method: competition with immobilised ligand
# Concentration: 1 µM
target,effect on,remaining binding
"Macrophage colony-stimulating factor 1 receptor (CSF1R, Homo sapiens, UniProt P07333)",cell-free assay,98%
"Receptor-interacting serine/threonine-protein kinase 4 (RIPK4, Homo sapiens, UniProt P57078)",binding,100%
"cAMP-dependent protein kinase catalytic subunit beta (PRKACB, Homo sapiens, UniProt P22694)",cell-free assay,93%
"Serine/threonine-protein kinase SIK3 (SIK3, Homo sapiens, UniProt Q9Y2K2)",binding,91%

# Further values, each from its own experiment
Structure (SMILES),system,setting,scale,measurement,value
CC(C)n1cnc(-c2ccc(F)cc2)c1-c1ncc(C(=O)Nc2ccc(N3CCN(C)CC3)cc2)[nH]1,IPF patients,"60 mg once daily, adverse event",,aortic valve incompetence incidence,0%
COc1ccc(-c2c(Nc3ccccn3)[nH]c3c(C4=CCCCC4)c(-c4ccccc4)nn3c2=O)cc1,"human, plasma","oral, 200 mg twice daily",baseline: (Cmax-Cmin) over Cmin,swing,0.685 and 0.551 and 0.263

# A few entries again (sample 2):
target,remaining activity
"Cyclin-dependent kinase 1, with cyclin A (CDK1, Homo sapiens, UniProt P06493)",56.9%
"RAC-beta serine/threonine-protein kinase (AKT2, Homo sapiens, UniProt P31751)",88.6%
"G protein-coupled receptor kinase 4 (GRK4, Homo sapiens, UniProt P32298)",40.4%
